Published values of several laboratories.
Compare with care: the assays were run in different laboratories. Numbers after ± are the reported error.

Compound | target or system | test | system | conditions | how to read | endpoint | result
CNS(=O)(=O)Nc1nccc(Cc2c(C)c3ccc(Oc4ncccc4F)cc3oc2=O)c1F | TOV21G | cell viability | – | 7 days | – | IC50 | > 1000 nM
Nc1ncc(-c2cc(-c3cnn(CC(F)(F)F)c3)ncc2F)nc1C(=O)NC1CNCC(F)C1 (stereo not shown) | BMPR1B | KINOMEscan | – | 1 µM | relative to: DMSO control | remaining binding | 59%
COC1CN([C@H]2CC[C@H]([C@@]3(C)Oc4c(Cl)cc(C(=O)NCc5c(SC)cc(C)[nH]c5=O)c(C)c4O3)CC2)C1 | – | RNA-seq, measured: FHIP1A mouse homolog | mouse, HT-1376 xenograft, whole blood | dose not given | relative to: vehicle | log2 fold change | 6.11
CN1CCCNC(=O)c2cccc(c2)C(=O)NCCCN(C)CCCNc2cccc3c2C(=O)c2cccc(c2C3=O)NCCC1 | SAS | RNA-Seq, measured: NFKB1 mRNA | – | 1 µM, 6 h | relative to: untreated cells | log2 fold change | -2.74
C=CC(=O)Nc1cccc(Cn2ncc3cnc(Nc4cnn(CCOC)c4)nc32)c1 | MEK3 human | binding, KINOMEscan | – | 100 nM | lower = stronger binding | percent of control | 75%
Cc1ncsc1-c1ccc(C(C)NC(=O)C2CC(O)CN2C(=O)C(NC(=O)CCCCCCCCCCN2CCCC(Nc3ncc(Cl)c(Nc4ccccc4S(=O)(=O)C(C)C)n3)C2)C(C)(C)C)cc1 (stereo not shown) | 22Rv1 | RNA-seq, measured: MAPK6-DT | – | concentration not given | relative to: DMSO | log2 fold change | -5.5
CCN(CC)CC(=O)Nc1cccc(-n2cc(-c3ccc4ccc(-c5cn(-c6cccc(NC(=O)CN(CC)CC)c6)nn5)cc4c3)nn2)c1 | RCC4 | PCR angiogenesis array, measured: CXCL10 | – | 5 x IC50, 4 h, normoxia | relative to: untreated | fold regulation | -1.1
C=CC(=O)N1[C@H](c2ccc3c(c2)OCO3)c2[nH]c3ccccc3c2C[C@@H]1C(=O)N1CCN(C)CC1 | human cyclin E1 N112C-3xFLAG:CDK2 | co-IP with TMT proteomics, measured: HSPA9 | – | concentration not given, P38646 | relative to: wild type DMSO | relative co-enrichment | 115%
C=C(NC(=O)c1csc(-c2nc3c(cc2O)-c2nc(cs2)C(=O)NC(C(C)O)C(=O)NC(=C(C)OC)c2nc(cs2)C(=O)NC2c4nc(cs4)C(=O)NC(COC(=O)c4c5c6c(cccc6n4O)COC(=O)C(OC4CC(C)(O)C(N(C)C)C(C)O4)C2OC5)c2nc-3cs2)n1)C(N)=O (stereo not shown) | Staphylococcus aureus | – | ATCC 43300 MRSA | 2 x MIC, 1 h exposure | – | post-antibiotic effect | 1.09 ± 0.14 h
Cn1ncc2cc(-c3cncc(Cl)c3N3CCC4(CCNC4=O)CC3)ccc21 | LS174T | gene expression, microarray, measured: SLC39A8 mRNA | – | concentration not given, 24 h | relative to: untreated cells | log2 fold change | -2.21

For quick reference, copied from above:
Compound | target or system | test | system | conditions | how to read | endpoint | result
C=C(NC(=O)c1csc(-c2nc3c(cc2O)-c2nc(cs2)C(=O)NC(C(C)O)C(=O)NC(=C(C)OC)c2nc(cs2)C(=O)NC2c4nc(cs4)C(=O)NC(COC(=O)c4c5c6c(cccc6n4O)COC(=O)C(OC4CC(C)(O)C(N(C)C)C(C)O4)C2OC5)c2nc-3cs2)n1)C(N)=O (stereo not shown) | Staphylococcus aureus | – | ATCC 43300 MRSA | 2 x MIC, 1 h exposure | – | post-antibiotic effect | 1.09 ± 0.14 h
